Measured values pooled from the literature.
A part holds a random share of what one study measured.

Study 1
Organism: Plasmodium berghei
Mode: inhibitor
Cells: Huh-7
Strain: GFP-expressing, liver stage
Tested at: 10 µM
Time: 24 h
Relative to: untreated control
Quantity: infection rate
CN1C(C(=O)Nc2ccccn2)=C(O)c2sccc2S1(=O)=O: 112%
CCC(C)(C)C(=O)O[C@H]1C[C@@H](C)C=C2C=C[C@H](C)[C@H](CC[C@@H]3C[C@@H](O)CC(=O)O3)[C@H]21: 55.5%
NC(=O)N/N=C/c1ccc([N+](=O)[O-])o1: 55.8%
NC(N)=O: 107%
COc1cc(NS(=O)(=O)c2ccc(N)cc2)ncn1: 108%
O=C(/C=C/C=C/c1ccc2c(c1)OCO2)N1CCCCC1: 95%
CC1(C)S[C@@H]2[C@H](NC(=O)COc3ccccc3)C(=O)N2[C@H]1C(=O)O: 111%
CC(=O)NS(=O)(=O)c1ccc(N)cc1: 99.4%
Cc1ncc(C[n+]2csc(CCO)c2C)c(N)n1: 105%
O=C(c1ccc(OCCN2CCCCC2)cc1)c1c(-c2ccc(O)cc2)sc2cc(O)ccc12: 62.8%
CC(=O)Nc1ccc(S(=O)(=O)Nc2ccc([N+](=O)[O-])cc2)cc1: 96.8%
CCCNC(C)C(=O)Nc1ccccc1C (centres unmarked): 103%
CN(C/C=C/C#CC(C)(C)C)Cc1cccc2ccccc12: 99.7%
CC(N)[C@]12C[C@H]3C[C@H](C[C@H](C3)C1)C2 (some centres unmarked): 94.8%

Study 2
Cell line: A-375
Tested at: 100 µM
Time: 36 h
Quantity: viability
NCCC(O)(P(=O)(O)O)P(=O)(O)O: 101%
O=C(O)[C@H]1O[C@H](O)[C@H](O)[C@@H](O)[C@@H]1O: 105%
COc1cccc2c1C(=O)c1c(O)c3c(c(O)c1C2=O)C[C@@](O)(C(C)=O)C[C@@H]3O[C@H]1C[C@H](N)[C@H](O)[C@H](C)O1: 15.2%
C[C@H](CCC(=O)O)[C@H]1CC[C@H]2[C@@H]3[C@H](O)C[C@@H]4C[C@H](O)CC[C@]4(C)[C@H]3CC[C@]12C: 90.8%
CC(C)C[C@H](NC(=O)[C@H](Cc1ccccc1)NC(=O)c1cnccn1)B(O)O: 5.36%
C/C=C1\NC(=O)[C@H]2CSSCC/C=C/[C@H](CC(=O)N[C@H](C(C)C)C(=O)N2)OC(=O)[C@H](C(C)C)NC1=O: 3.21%
CCC1=C(C)CN(C(=O)NCCc2ccc(S(=O)(=O)NC(=O)N[C@H]3CC[C@H](C)CC3)cc2)C1=O: 113%
COc1cc(C)c(/C=C/C(C)=C/C=C/C(C)=C/C(=O)O)c(C)c1C: 79.3%
CCC(Cc1c(I)cc(I)c(N)c1I)C(=O)O (centres unmarked): 91.9%
CC1CCc2cc(F)cc3c(=O)c(C(=O)O)cn1c23 (centres unmarked): 87.1%
COC(=O)Nc1nc2cc(C(=O)c3ccc(F)cc3)ccc2[nH]1: -1.8%

Study 3
Target: Dual specificity protein kinase TTK (TTK, Homo sapiens, UniProt P33981)
Effect on: enzyme activity
Mode: inhibitor
Tested at: 0.5 µM
Relative to: control
Quantity: remaining activity
Target sequence (P33981 1-857): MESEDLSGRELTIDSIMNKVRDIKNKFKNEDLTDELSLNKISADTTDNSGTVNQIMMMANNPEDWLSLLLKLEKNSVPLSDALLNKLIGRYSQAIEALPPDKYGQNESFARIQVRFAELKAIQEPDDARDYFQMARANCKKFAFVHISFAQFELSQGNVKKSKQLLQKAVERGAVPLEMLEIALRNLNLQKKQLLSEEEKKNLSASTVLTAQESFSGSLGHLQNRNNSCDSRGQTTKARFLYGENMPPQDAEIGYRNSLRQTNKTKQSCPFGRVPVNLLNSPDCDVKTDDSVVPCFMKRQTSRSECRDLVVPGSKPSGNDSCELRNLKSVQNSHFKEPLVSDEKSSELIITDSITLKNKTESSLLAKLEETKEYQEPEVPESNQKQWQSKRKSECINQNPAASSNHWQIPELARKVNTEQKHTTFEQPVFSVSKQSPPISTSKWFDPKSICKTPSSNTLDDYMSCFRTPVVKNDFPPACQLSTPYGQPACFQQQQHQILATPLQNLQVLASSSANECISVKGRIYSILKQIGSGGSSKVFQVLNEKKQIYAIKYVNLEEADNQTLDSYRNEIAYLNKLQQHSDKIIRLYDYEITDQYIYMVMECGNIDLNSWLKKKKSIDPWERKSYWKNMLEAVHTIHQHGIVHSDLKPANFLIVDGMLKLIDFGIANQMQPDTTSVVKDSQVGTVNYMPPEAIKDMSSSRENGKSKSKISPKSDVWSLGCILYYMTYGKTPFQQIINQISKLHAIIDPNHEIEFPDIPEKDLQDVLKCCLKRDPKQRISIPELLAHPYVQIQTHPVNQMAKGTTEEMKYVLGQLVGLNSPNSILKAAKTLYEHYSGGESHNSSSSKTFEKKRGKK
CC(C)c1nn(-c2c(Cl)cccc2Cl)c2nc(Cc3ccc(OCCO)cc3)[nH]c(=O)c12: 101%
CN(C)CCCn1cc(C2=C(c3c[nH]c4ccccc34)C(=O)NC2=O)c2ccccc21: 98.2%
COc1cc2ncc(-c3ccccc3)nc2cc1OC: 125%
COc1ccc(Cl)cc1NC(=O)Nc1cc(C)nc2ccccc12: 103%
C[S+]([O-])c1ccc(-c2nc(-c3ccncc3)c(-c3ccc(F)cc3)[nH]2)cc1 (centres unmarked): 99.9%
Cc1ccc(NC(=O)c2ccc(CN3CCN(C)CC3)cc2)cc1Nc1nccc(-c2cccnc2)n1: 102%
Cn1cc(/C=C2\C(=O)Nc3ccc(S(N)(=O)=O)cc32)c2ccccc21: 97.3%
CCOc1cc2ncnc(Nc3cccc(Br)c3)c2cc1OCC: 91.2%
COc1cc2ncnc(N3CCN(C(=O)Nc4ccc(Oc5ccccc5)cc4)CC3)c2cc1OC: 98.3%
CCN1/C(=C/C(C)=O)Sc2ccc(OC)cc21: 88.7%
CCC(=O)Nc1ccc2ncnc(Nc3cccc(Br)c3)c2c1: 113%

Study 4
Target: 5-hydroxytryptamine receptor 2B (HTR2B, Homo sapiens, UniProt P41595)
Chain of UniProt P41595 (whole entry, looked up): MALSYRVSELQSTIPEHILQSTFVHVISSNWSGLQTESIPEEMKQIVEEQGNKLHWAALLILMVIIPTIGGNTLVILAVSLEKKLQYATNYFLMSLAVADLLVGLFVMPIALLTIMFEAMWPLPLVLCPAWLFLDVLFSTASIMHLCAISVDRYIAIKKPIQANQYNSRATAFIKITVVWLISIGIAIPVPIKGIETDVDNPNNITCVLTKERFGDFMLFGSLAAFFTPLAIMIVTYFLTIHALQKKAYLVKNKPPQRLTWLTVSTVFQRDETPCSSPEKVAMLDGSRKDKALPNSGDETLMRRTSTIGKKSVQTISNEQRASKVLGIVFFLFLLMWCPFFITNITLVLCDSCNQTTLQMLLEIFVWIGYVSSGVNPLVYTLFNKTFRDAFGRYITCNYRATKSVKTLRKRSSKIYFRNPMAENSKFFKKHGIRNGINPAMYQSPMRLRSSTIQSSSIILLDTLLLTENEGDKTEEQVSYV
Effect on: ligand displacement
Tested at: 10 µM
Quantity: inhibition
CC1CCN(c2ccnc(NCc3cn(C)cn3)n2)CC1: 81.8%
Cc1cc(C)c(-n2ccn3nc(-c4cccnc4)cc23)cc1NC(=O)c1cc(C#N)cc(S(F)(F)(F)(F)F)c1: -7%
CC(=O)c1c(NS(C)(=O)=O)c2cc(-c3ccc(Cl)cc3)c(-c3ccc(Cl)cc3Cl)nc2n(C)c1=O: -0.601%
O=C(Nc1cccnn1)N1CC(CC=Cc2cncc(Oc3ccc(C(F)(F)F)cn3)n2)C1: 2.28%
CCCCN(CCCC)C(=O)CN1C[C@@H](c2cc(OC)c3c(c2)OCO3)[C@H](C(=O)O)[C@H]1CC(C)(C)CCC: 76%
CCc1ccccc1C(=O)Nc1n[nH]c2c(C)c(F)c(C3C(C#N)=C(C)N(C)C(C)=C3C#N)cc12: 32.5%
C[C@H](NC(=O)Nc1cc2[nH]ncc2c(CO)n1)c1ccccn1: 90.9%
O=C1NC(c2ccccn2)Sc2ccccc21 (centres unmarked): -5.37%
CCS(=O)(=O)c1cc2cc(C[C@](O)(CC(C)(C)c3ccc(F)cc3C(N)=O)C(F)(F)F)[nH]c2cn1: 26.1%
O=C(N[C@H]1CCCCC/C=C\C2C[C@@]2(C(=O)O)NC(=O)[C@@H]2C[C@@H](Oc3ccncc3)CN2C1=O)OC1CCCC1 (some centres unmarked): 1.85%
NS(=O)(=O)c1cc(NC(=O)C2(c3ccccc3Cl)CC2)ccc1Oc1cccc(Cl)c1: 21.1%
O=S(=O)(NC1CCC(c2cc(F)ccc2F)(S(=O)(=O)c2ccc(Cl)cc2)CC1)C(F)(F)F (centres unmarked): 4.74%
COc1ccc2c(c1)O[C@@H](c1ccc(OC)c(OC)c1)C[C@H]2NC(=O)C1(c2ccc3c(c2)OC(F)(F)O3)CC1: -0.83%
Cn1cc(Cl)c2c(Oc3c(F)cc(Nc4cc(Cl)nc(N)n4)cc3F)ccnc21: 17.3%
CN([C@@H]1CCc2c(CC(=O)O)c3cc(S(C)(=O)=O)ccc3n2C1)S(=O)(=O)c1ccc(F)cc1: -10.2%
CNCc1ccccc1-c1csc([C@@H](C)Nc2nc(C)nc3cc(OC)c(OC)cc23)c1: 86.9%
O=C(c1ccc(F)cc1)N1CC(COc2ccc(Br)cc2)(C(=O)O)C1: -2.5%
